Assay results pooled from the literature.
Protocols differ between the studies behind these lines. Values joined by “and” are separate records of one study, mostly repeats; a detail may differ. pIC50: −log10 of the molar value.
Target: Amine oxidase [flavin-containing] B (MAOB, Homo sapiens, UniProt P27338)
Chain of UniProt P27338 (whole entry, looked up): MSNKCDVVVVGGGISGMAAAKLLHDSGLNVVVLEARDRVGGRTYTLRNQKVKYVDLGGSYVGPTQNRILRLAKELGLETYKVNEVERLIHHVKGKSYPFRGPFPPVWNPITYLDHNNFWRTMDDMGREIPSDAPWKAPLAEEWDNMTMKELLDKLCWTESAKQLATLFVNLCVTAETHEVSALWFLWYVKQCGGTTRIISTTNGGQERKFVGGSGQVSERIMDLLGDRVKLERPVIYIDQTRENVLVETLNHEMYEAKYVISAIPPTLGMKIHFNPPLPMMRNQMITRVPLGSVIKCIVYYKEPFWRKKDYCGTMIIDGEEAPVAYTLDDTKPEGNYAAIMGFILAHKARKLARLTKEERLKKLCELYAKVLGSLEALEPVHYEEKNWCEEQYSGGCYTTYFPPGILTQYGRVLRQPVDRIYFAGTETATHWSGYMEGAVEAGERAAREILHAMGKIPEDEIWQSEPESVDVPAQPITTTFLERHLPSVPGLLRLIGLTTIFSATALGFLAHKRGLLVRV
Action: inhibitor

CCC/C=C1\OC(=O)C2=C1CC[C@@H](O)[C@H]2O has a pIC50 of 3.23 (enzyme activity, fluorescence).
O=C1Nc2ccc(F)cc2/C1=N/N=C/c1cccc(OCc2ccccc2)c1 gave a pIC50 of 6.22 (enzyme activity).
O=C(/C=C/c1ccc2c(c1)OCCO2)c1ccc(Br)s1 gave a pIC50 of 6.92 (enzyme activity, fluorescence).
COc1ccc2c(c1)/C(=N/N=C/c1ccc(OCc3cccc(F)c3)cc1)C(=O)N2 gave a pIC50 of 5.05 (enzyme activity).
CCCC[C@@H]1OC(=O)C2=C1CCC=C2 gave a pIC50 of 4.57 (enzyme activity, fluorescence).
For COc1cc(OC)c2c(c1)C(N)(c1cc(C)cc(OC)c1OC)OC2=O (racemic), the pIC50 was under 4.00 (20 min, pH 7.4, 37 °C, with: kynuramine 30 µM).
Cc1cc(O)c2c(c1)C(=O)c1cccc(OC3OC(COC4OC(CO)C(O)C(OC5OC(CO)C(O)C(O)C5O)C4O)C(O)C(O)C3O)c1C2=O (centres unmarked) has a pIC50 of under 3.40 (enzyme activity).
For CCOC1(c2cc(C)cc(OC)c2OC)OC(=O)c2c(OC)cc(OC)cc21 (racemic), the pIC50 was 4.79 and > 4.70 (enzyme activity, fluorescence; pH 7.4).
Cc1cc(=O)c2c(O)c3c(OC4OC(CO)C(O)C(O)C4O)cccc3cc2o1 (centres unmarked) has a pIC50 of under 3.40 (enzyme activity).
For CCCCC1OC(=O)C2=CCCCC21 (centres unmarked), the pIC50 was 6.91 (enzyme activity, fluorescence).
O=C(/C=C/c1ccc2c(c1)OCO2)c1ccc(Br)s1 has a pIC50 of 6.10 (enzyme activity, fluorescence).
For COc1c(OC2OC(CO)C(O)C(O)C2O)c(C)cc2c1C(=O)c1c(O)cccc1C2=O (centres unmarked), the pIC50 was under 3.40 (enzyme activity).
O=C(/C=C/c1ccc2c(c1)OCCO2)c1cccs1 gave a pIC50 of 6.21 (enzyme activity, fluorescence).
Cc1cc(O)c2c(c1)C(=O)c1cc(O)c(O)c(O)c1C2=O gave a pIC50 of 5.34 (enzyme activity).
With Cc1ccc2c(c1)/C(=N/N=C/c1ccc(OCc3ccccc3)cc1)C(=O)N2 the pIC50 was 5.18 (enzyme activity).
With COc1cc2c(c(O)c1OC)C(=O)c1c(cc(C)c(O)c1OC)C2=O the pIC50 was under 3.40 (enzyme activity).
The pIC50 of COc1cc(OC)cc(C(=O)c2cc(C)cc(OC)c2OC)c1 is reported as 4.14 (enzyme activity, fluorescence; pH 7.4).
CCC/C=C1\OC(=O)c2ccccc21 has a pIC50 of 4.92 (enzyme activity, fluorescence).
With O=C1Nc2ccc(Br)cc2/C1=N/N=C/c1ccc(OCc2ccccc2)cc1 the pIC50 was 4.85 (enzyme activity).
COc1cc(OC2OC(COC3OC(CO)C(O)C(O)C3O)C(O)C(O)C2O)c2c(c1)cc(O)c1c(=O)cc(C)oc12 (centres unmarked) gave a pIC50 of under 3.40 (enzyme activity).
COc1cc(C)cc(C2(O)NC(=O)c3c(OC)cc(OCc4ccccc4)cc32)c1OCc1ccccc1 (racemic) has a pIC50 of under 4.00 (20 min, pH 7.4, 37 °C, with: kynuramine 30 µM).
With O=C1Nc2ccc(Cl)cc2/C1=N/N=C/c1ccc(OCc2ccccc2)cc1 the pIC50 was 5.01 (enzyme activity).
With COc1cc(OC)c2c(c1)C(OC)(c1cc(C)cc(OC)c1OC)OC2=O (racemic) the pIC50 was 4.41 (enzyme activity, fluorescence; pH 7.4).
With O=C1Nc2ccc(Cl)cc2/C1=N/N=C/c1cccc(OCc2ccccc2)c1 the pIC50 was 5.22 (enzyme activity).
CCC/C=C1\OC(=O)C2=C1CCC=C2 has a pIC50 of 3.20 (enzyme activity, fluorescence).
C/C(=N\NC(=O)c1cccc(S(=O)(=O)N2CCOCC2)c1)c1cc(Cl)ccc1O has a pIC50 of under 4.00 (enzyme activity).

Repeated from above:
Cc1cc(O)c2c(c1)C(=O)c1cccc(OC3OC(COC4OC(CO)C(O)C(OC5OC(CO)C(O)C(O)C5O)C4O)C(O)C(O)C3O)c1C2=O (centres unmarked) has a pIC50 of under 3.40 (enzyme activity).
With O=C1Nc2ccc(Cl)cc2/C1=N/N=C/c1ccc(OCc2ccccc2)cc1 the pIC50 was 5.01 (enzyme activity).
